Measurements gathered from unrelated publications.
Numbers after ± are the reported error.
B1: UGT1A1 (Homo sapiens, UniProt P22309); chain HAGKILLIPVDGSHWLSMLGAIQQLQQRGHEIVVLAPDASLYIRDGAFYTLKTYPVPFQREDVKESFVSLGHNVFENDSFLQRVIKTYKKIKKDSAMLLSGCSHLLHNKELMASLAESSFDVMLTDPFLPCSPIVAQYLSLPTVFFLHALPCSLEFEATQCPNPFSYVPRPLSSHSDHMTFLQRVKNMLIAFSQNFLCDVVYSPYATLASEFLQREVTVQDLLSSASVWLFRSDFVKDYPRPIMPNMVFVGGINCLHQNPLSQEFEAYINASGEHGIVVFSLGSMVSEIPEKKAMAIADALGKIPQTVLWRYTGTRPSNLANNTILVKWLPQNDLLGHPMTRAFITHAGSHGVYESICNGVPMVMMPLFGDQMDNAKRMETKGAGVTLNVLEMTSEDLENALKAVINDKSYKENIMRLSSLHKDRPVEPLDLAVFWVEFVMRHKGAPHLRPAAHDLTWYQYHSLDVIGFLLAVVLTVAFITFKCCAYGYRKCLGKKGRVKKAHKSKTH
B2: enzyme (Burkholderia cenocepacia, UniProt B4E589); chain MTGYDRQSISDTTAKILLEVQAVHFNAEKPFIFTSGWASPVYIDCRKLISYPRVRRALMEMAETTITRDIGFEQIDAVAGGETAGIPFAAWIADRMMVPMQYVRKKPKGFGRNAQIEGHLEEGSRVLLVEDLTTDSRSKINFVNALRTAGATVNHCFVLFHYNIFKESVSVLKDIDVDLHALATWWDVLRVAKASGYFETKTLDEVEKFLHAPAEWSAAHGGATAPKE
B3: enzyme K234A (Methanosarcina mazei, UniProt Q8PVB1); chain MSEQRSVPLREHLLALKPCRHGGLIQETSETYGIPENEILDFSANFNPLGSPFDYPENGLNFEDIIKKSCGKLLEYPDNRYVEFREAAARFVGLGVTPQSIVPGNGSTEIVRLVVESVIEKGDKVLLPWPTFGEYEMQCRITGAEPVCPSQEEVNTLPDEVLEEAKILFICNPNNPTGKLRTREELKVLAERCREHKTLLYVDEAFIELSDPSQSVADLPAENNYVFVMRSLTADFAIPGIRMGFGIAPPAMADILNTARLSWNLGAIANNTGIALLNIEGGIDSPYLKKAREMILKEGETLKAKIDRIRGFEAGEVNVNFILVDVSKFMLNSSELTARLAARGVLVRDCVSFHGLGKNYIRVAVRTEKENDRLIAAIGDVITEWGREQAKNELQHVIEKASEEGIGGRKTCEYYPCHFEGQNCTFCFCPFYPCENEKTGGKWIQSSRGGRVWSCVDCHLVHKKEIAQKILDCLMHEGDTDELVKVAWKEVMEPIL
B4: enzyme H47Q (Pseudomonas putida, UniProt Q88FY2); chain MRGRQKIAIVGAGLGGAAAATLLQQAGFDVEVFEQAPAFTRLGAGIQIGPNVMKIFRRMGLEQKLELMGSHPDFWFSRDGNTGDYLSRIPLGEFARREYGAAYITIHRGDLHALQIEAIQPGTVHFGKRLEKIVDEGDQVRLDFADGTHTVADIVIGADGIHSKIREELLGAEAPIYSGWVAHRALIRGVNLAQHADVFEPCVKWWSEDRHMMVYYTTGKRDEYYFVTGVPHEAWDFQGAFVDSSQEEMRAAFEGYHPTVQKLIDATESITKWPLRNRNPLPLWSRGRLVLLGDACHPMKPHMAQGACMAIEDAAMLTRCLQETGLSDHRTAFALYEANRKERASQVQSVSNANTWLYSQEDPAWVYGYDLYGQQLESGEAA
B5: enzyme (Arabidopsis thaliana, UniProt Q9FJN8); chain TSGGGYGDPSQKIDYVFKVVLIGDSAVGKSQILARYARDEFSLDSKATIGVEFQTRTLVIDHKSVKAQIWDTAGQERYRAVTSAYYRGAVGAMLVYDITRRQTFDHIPRWLEELRAHADKNIVIILIGNKSDLVDQRAIPTEDAKEFAEKEGLFFLETSAFNATNVESAFSTVLTEIFNIVNKKSLAASEDQENGNPGSLAGKKIDIVPGPGQVIPNKSNMCCNS
UniProt Q04430, sequence (whole entry, looked up): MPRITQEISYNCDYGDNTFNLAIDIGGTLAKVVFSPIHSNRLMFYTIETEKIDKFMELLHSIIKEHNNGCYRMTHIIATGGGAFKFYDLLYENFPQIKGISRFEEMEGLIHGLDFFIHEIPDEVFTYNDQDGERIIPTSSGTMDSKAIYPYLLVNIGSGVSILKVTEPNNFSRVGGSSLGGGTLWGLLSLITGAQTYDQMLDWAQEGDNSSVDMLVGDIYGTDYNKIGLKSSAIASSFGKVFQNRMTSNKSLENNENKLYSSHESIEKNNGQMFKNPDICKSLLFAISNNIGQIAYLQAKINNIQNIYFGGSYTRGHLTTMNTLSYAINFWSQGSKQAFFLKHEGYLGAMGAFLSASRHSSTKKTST

| Molecule | tested on | test | system | conditions | scale | endpoint | result |
| --- | --- | --- | --- | --- | --- | --- | --- |
| enzyme (Coleus scutellarioides, UniProt Q84VU3) | O=C(/C=C/c1ccc(O)cc1)O[C@H](Cc1ccc(O)c(O)c1)C(=O)O | steady-state kinetics |  | pH 7.5, 30 °C, not purified |  | Km | 137 µM |
| TCP-1 alpha |  | co-immunoprecipitation | human RBC cytosol | DMTMM crosslinker, unit not given, with: Band 3 peptide 1-56 bait | relative to: negative control | co-IP enrichment | 28000 |
| B1 (UGT1A1) | CC(C)=CCc1cc2c(cc1O)O[C@H](c1ccc(O)cc1)CC2=O | steady-state kinetics |  | pH 7.4 |  | Km | 0.88 µM |
| enzyme (Oenococcus oeni, UniProt Q04HQ8) | COc1cccc(OC)c1O | steady-state kinetics |  | pH 3.7, 24 °C, with: CuSO4 1 mM |  | Km | 3000 µM |
| enzyme N248Y/Q325R/R246H/R328K/S219F (Arabidopsis thaliana, UniProt O24495) | C[C@@H](O)C(=O)SC[C@H](NC(=O)CC[C@H](N)C(=O)O)C(=O)NCC(=O)O | steady-state kinetics |  | pH 7.2, 25 °C |  | Km | 240 µM |
| AACGAACGAACG (dsDNA) | Fibroin-modulator-binding protein-1 99-193 (Bombyx mori, UniProt Q5FBS0) | ITC | double-stranded DNA, one strand shown |  |  | Kd | 4.76 ± 0.956 µM |
| B2 (enzyme) | O=P(O)(O)OC[C@H]1O[C@H](OP(=O)(O)OP(=O)(O)O)[C@H](O)[C@@H]1O | steady-state kinetics |  | pH 7, room temperature, with: orotate 1 mM |  | Km | 555 µM |
| enzyme (Pseudanabaena biceps, UniProt L8N0N6) | NC(=O)c1ccc[n+]([C@@H]2O[C@H](COP(=O)(O)O)[C@@H](O)[C@H]2O)c1 | steady-state kinetics |  | pH 7.4, 30 °C, apparent, cofactor varied |  | Km | 10200 µM |
| B3 (enzyme K234A) | Nc1ncnc2c1ncn2[C@@H]1O[C@H](COP(=O)(O)OP(=O)(O)OP(=O)(O)O)[C@@H](O)[C@H]1O | steady-state kinetics |  | pH 8.5, 25 °C, apparent, anoxic, with: L-Thr 10 mM |  | Km | 96 µM |
| human alpha-enolase |  | co-immunoprecipitation | human RBC cytosol | unit not given, with: Band 3 peptide 1-56 bait | relative to: negative control | co-IP enrichment | 1.6 |
| B4 (enzyme H47Q) | NC(=O)C1=CN([C@@H]2O[C@H](COP(=O)(O)OP(=O)(O)OC[C@H]3O[C@@H](n4cnc5c(N)ncnc54)[C@H](O)[C@@H]3O)[C@@H](O)[C@H]2O)C=CC1 | steady-state kinetics |  | with: FAD |  | Km | 18 µM |
| AMNSLSLYI | HLA class I histocompatibility antigen, A alpha chain, allele A*02:01 (Homo sapiens, UniProt P04439) | peptide-MHC stability, brefeldin A chase | peptide, T2 cells |  |  | complex half-life | > 7 h |
| B5 (enzyme) | Nc1nc2c(ncn2[C@@H]2O[C@H](COP(=O)(O)OP(=O)(O)OP(=O)(O)O)[C@@H](O)[C@H]2O)c(=O)[nH]1 | steady-state kinetics |  | pH 7.5, 30 °C |  | Km | 6240 µM |
| CAB1 (Saccharomyces cerevisiae, UniProt Q04430) | CC(C)(CO)[C@@H](O)C(=O)NCCC(=O)O | steady-state kinetics |  | pH 7.4, 80 °C, with: ATP 1000 µM |  | Km | 182 µM |
| TLLEWLTKV | Jurkat T cells expressing 1G4 TCR | NFAT-eGFP reporter, flow cytometry | peptide | concentration not given, HLA-A*02:01 NY-ESO system |  | reporter activation | 0.18% |

Excerpt of the above:
| Molecule | tested on | test | system | conditions | scale | endpoint | result |
| --- | --- | --- | --- | --- | --- | --- | --- |
| B5 (enzyme) | Nc1nc2c(ncn2[C@@H]2O[C@H](COP(=O)(O)OP(=O)(O)OP(=O)(O)O)[C@@H](O)[C@H]2O)c(=O)[nH]1 | steady-state kinetics |  | pH 7.5, 30 °C |  | Km | 6240 µM |
| CAB1 (Saccharomyces cerevisiae, UniProt Q04430) | CC(C)(CO)[C@@H](O)C(=O)NCCC(=O)O | steady-state kinetics |  | pH 7.4, 80 °C, with: ATP 1000 µM |  | Km | 182 µM |
